Results pooled from the literature.
Protocols differ between the studies behind these lines.

CN(C)C(=O)c1ccnc(N2Cc3cn(Cc4ccc(F)cc4)nc3C2)n1  Papp (MDCK-MDR1): 27.3 ×10⁻⁶ cm/s
Cc1cc(C(=O)N[C@@H](CC(=O)NC(C)(C)C)C(=O)NCCNC(=O)c2cc(-c3ccccc3)ccn2)no1  Papp (PAMPA; pH 5): 22 ×10⁻⁶ cm/s
O=C(c1ccnc(N2Cc3cn(Cc4ccc(F)cc4)nc3C2)n1)N1CCOCC1  Papp (MDCK-MDR1): 12 ×10⁻⁶ cm/s
CCC(C)OC(=O)c1ccc(O)cc1 (centres unmarked)  Papp (PAMPA; 5 µM, pH 7.4): 5.64 ×10⁻⁶ cm/s
COc1cccc(CNc2ccc3c(c2)S(=O)(=O)C=C3)c1  Papp (PAMPA-BBB; pH 7.4): 12.8 ×10⁻⁶ cm/s
CC[C@H](C)[C@@H]1NC(=O)[C@H](Cc2ccc(O)cc2)NC(=O)CSC[C@@H](C(N)=O)NC(=O)[C@H](CC(N)=O)NC(=O)[C@H](Cc2cnc[nH]2)NC(=O)[C@H](Cc2ccc(O)cc2)NC(=O)[C@H](CC(=O)O)NC(=O)[C@H](Cc2ccc(O)cc2)NC(=O)[C@H](CC(C)C)NC(=O)[C@H](CCCNC(=N)N)NC1=O  Papp (PAMPA; 200 µM, 5 h, pH 7.4): 0.0419 ×10⁻⁶ cm/s
CN(C)C(=O)c1cccc(N2Cc3cn(Cc4ccc(F)c(F)c4)nc3C2)c1  Papp (MDCK-MDR1): 39.3 ×10⁻⁶ cm/s
CC(C)OC(=O)c1ccc(O)cc1  Papp (PAMPA; 5 µM, pH 7.4): 5.64 ×10⁻⁶ cm/s
Cc1cc(C(=O)N[C@@H](CC(=O)NC(C)(C)C)C(=O)NCCNC(=O)c2cccc(-n3cccn3)c2)no1  Papp (PAMPA; pH 5): 5.6 ×10⁻⁶ cm/s
COc1ccc(CNc2ccc3c(c2)S(=O)(=O)C=C3)cc1  Papp (PAMPA-BBB; pH 7.4): 10.1 ×10⁻⁶ cm/s
C/C(N)=N/C(=N\S(=O)(=O)c1ccc(C(F)(F)F)cc1)N1C[C@H](c2ccccc2)C(c2ccc(Cl)cc2)=N1  Papp (PAMPA; pH 5): 522 ×10⁻⁶ cm/s
O=S1(=O)C=Cc2ccc(NCc3ccccc3O)cc21  Papp (PAMPA-BBB; pH 7.4): 16.9 ×10⁻⁶ cm/s
CN(C)C(=O)c1ccnc(N2Cc3cn(Cc4ccc(Cl)cc4)nc3C2)n1  Papp (MDCK-MDR1): 65.5 ×10⁻⁶ cm/s
CC(C)COC(=O)c1ccc(O)cc1  Papp (PAMPA; 5 µM, pH 7.4): 5.15 ×10⁻⁶ cm/s
CC[C@H](C)[C@@H]1NC(=O)[C@H](Cc2ccc(O)cc2)NC(=O)CSC[C@@H](C(N)=O)NC(=O)[C@H](CC(N)=O)NC(=O)[C@H](Cc2c[nH]cn2)NC(=O)[C@H](Cc2ccc(O)cc2)NC(=O)[C@H](CC(=O)O)NC(=O)[C@H](Cc2ccc(F)c(F)c2)NC(=O)[C@H](CC(C)C)NC(=O)[C@H](CCCNC(=N)N)NC1=O  Papp (PAMPA; 200 µM, 5 h, pH 7.4): 0.0358 ×10⁻⁶ cm/s
CN(C)C(=O)c1cccc(N2Cc3cnn(Cc4ccc(F)cc4)c3C2)c1  Papp (MDCK-MDR1): 7.4 ×10⁻⁶ cm/s
COc1ccccc1CNc1ccc2c(c1)S(=O)(=O)C=C2  Papp (PAMPA-BBB; pH 7.4): 12.7 ×10⁻⁶ cm/s

Some of these lines once more:
COc1ccccc1CNc1ccc2c(c1)S(=O)(=O)C=C2  Papp (PAMPA-BBB; pH 7.4): 12.7 ×10⁻⁶ cm/s
